Measurements from different studies.
Each line is one published result; not all experiments were run side by side. ± marks the error that the study gave.
Cell line: MCF7

| Compound | observed | technique | sample | concentration | time | quantity | value |
| --- | --- | --- | --- | --- | --- | --- | --- |
| N=C(N)NCCC[C@H]1NC(=O)[C@H](CCCN)NC(=O)[C@@H](Cc2c[nH]cn2)NC(=O)[C@H](Cc2ccc(O)cc2)NC(=O)[C@@H](Cc2ccc(O)cc2)NC(=O)[C@H](Cc2ccccc2)NC(=O)[C@@H](Cc2c[nH]c3ccccc23)NC(=O)[C@H](CO)NC1=O | cytotoxicity |  |  |  |  | CC50 | 18 µM |
| CCCCn1cc(C(=O)O)c(=O)c2cc(F)c(Nc3ccccc3Cl)c(N)c21 | cell growth | SRB |  |  | 72 h | IC50 | 23.4 ± 3.14 µg/mL |
| CC(C)C[C@@H]1NC(=O)[C@@H](Cc2c[nH]c3ccccc23)NC(=O)[C@H](CCCNC(=N)N)NC(=O)[C@@H](CCC(=O)O)NC(=O)[C@H](CCC(N)=O)NC(=O)[C@@H](CCC(=O)O)NC(=O)[C@H](CCCNC(=N)N)NC(=O)[C@@H](Cc2c[nH]c3ccccc23)NC1=O | cytotoxicity |  |  |  |  | CC50 | > 40 µM |
| CC=C(C)C(=O)OC1C(O)C2COC(=O)CCC(=O)CCCCCCC(CCCCC)OC3OC(C)C(OC(C)=O)C(O)C3OC(O2)C1O (stereo not drawn) | cytotoxicity |  |  |  |  | IC50 | 9.09 µM |
| CCCCn1cc(C(=O)O)c(=O)c2cc(F)c(Nc3cccc(Cl)c3)c([N+](=O)[O-])c21 | cell growth or viability | SRB |  |  |  | IC50 | 2.6 µg/mL |
| CC=C(C)C(=O)OC1C2COC(=O)CCC(=O)CCCCCCC(CCCCC)OC3OC(C)C(OC(C)=O)C(O)C3OC(O2)C(O)C1OC(=O)C(C)=CC (stereo not drawn) | cytotoxicity |  |  |  |  | IC50 | 3.93 µM |
| CCCCn1cc(C(=O)O)c(=O)c2cc(F)c(Nc3cccc(Cl)c3)c(N)c21 | cell growth | SRB |  |  | 72 h | IC50 | 8.73 ± 0.75 µg/mL |
| COc1cc2c(cc1OC)C(=O)C(=Cc1ccc(N3CCN(C)CC3)cc1)C2 | cell viability | MTT |  |  | 48 h | LD50 | 24.2 µM |
| O=C(CCc1ccccc1)NOC(=O)OCc1ccccc1 |  |  |  | 800 µM |  | viability | < 30% |
| CCCCn1cc(C(=O)O)c(=O)c2cc(F)c3c(nnn3-c3cccc(Cl)c3)c21 | cell growth or viability | SRB |  |  |  | IC50 | 54.2 µM |
| CC[C@H](C)[C@@H]1NC(=O)[C@H](CCCCN)NC(=O)[C@H](CCCCN)NC(=O)[C@H](Cc2ccc(O)cc2)NC(=O)[C@H](CC(C)C)NC(=O)[C@@H]2CCCN2C(=O)[C@H](C)NC(=O)CNC(=O)CNC(=O)[C@H](CO)NC(=O)CNC(=O)CNC(=O)[C@H](CO)NC(=O)[C@H]([C@@H](C)O)NC(=O)[C@H](CC(C)C)NC(=O)[C@H](CC(C)C)NC(=O)[C@H](C)NC(=O)[C@H](Cc2c[nH]c3ccccc23)NC(=O)[C@H](Cc2ccc(O)cc2)NC(=O)[C@H](Cc2c[nH]cn2)NC(=O)[C@H](CCC(=O)O)NC(=O)[C@H](Cc2ccccc2)NC(=O)[C@H]([C@@H](C)O)NC(=O)[C@H](CC(C)C)NC(=O)[C@@H]2CCCN2C(=O)CNC(=O)CNC(=O)CSC[C@@H](C(N)=O)NC(=O)[C@H](CC(C)C)NC(=O)[C@H](CCCCN)NC(=O)[C@H](CCCCN)NC(=O)[C@H]([C@@H](C)CC)NC1=O | cell viability | resazurin |  |  | 24 h | CC50 | > 32 µM |
| N=C(N)NCCC[C@H](NC(=O)[C@@H]1CCCN1C(=O)[C@H](CC(N)=O)NC(=O)[C@H](Cc1ccccc1)NC(=O)[C@H](Cc1c[nH]cn1)NC(=O)[C@H](Cc1ccccc1)NC(=O)[C@H](Cc1ccccc1)NC(=O)Cc1ccc2ccccc2c1)C(=O)O |  |  | cell lysate | 200 µM | 1 h | remaining peptide | 39% |

For quick reference, copied from above:
| Compound | observed | technique | sample | concentration | time | quantity | value |
| --- | --- | --- | --- | --- | --- | --- | --- |
| CC=C(C)C(=O)OC1C(O)C2COC(=O)CCC(=O)CCCCCCC(CCCCC)OC3OC(C)C(OC(C)=O)C(O)C3OC(O2)C1O (stereo not drawn) | cytotoxicity |  |  |  |  | IC50 | 9.09 µM |
| CCCCn1cc(C(=O)O)c(=O)c2cc(F)c(Nc3cccc(Cl)c3)c([N+](=O)[O-])c21 | cell growth or viability | SRB |  |  |  | IC50 | 2.6 µg/mL |
